Results pooled from the literature.
Protocols differ between the studies behind these lines. Numbers after ± are the reported error.

SMILES | target or system | test | system | setting | endpoint | result
Cc1cccc(-c2cc(C#N)cc(Oc3c(C(F)(F)F)ccn(Cc4n[nH]c(=O)n4C)c3=O)c2)c1 | HIV-1 | viral cytopathicity | MT4, Y181C mutant | – | EC50 | 0.058 ± 0.021 µM
COc1cc(F)c(C(=O)c2ccnc(Nc3ccc(C#N)cc3)n2)c(F)c1 | HIV-1 | viral replication | MT4, RT Y181C mutant | – | EC50 | 0.481 µM
CC(C)N1CCn2cc(C(=O)NCc3ccc(F)cc3F)c(=O)c(O)c2C1=O | HIV-1 | viral replication, single-round vector infection | IN E138K/G140S/Q148H | – | EC50 | 0.0923 ± 0.0033 µM
CC[C@H](C)[C@@H]1NC(=O)[C@H](CC(C)C)NC(=O)[C@@](C)(NC(=O)[C@H](Cc2ccccc2)NC(=O)[C@H](Cc2ccc(O)cc2)NC(=O)[C@H](C)NC(=O)[C@@H](N)[C@@H](C)O)CCCC=CCCC[C@@](C)(C(=O)NCC(=O)N[C@@H](CCCNC(=N)N)C(=O)N[C@@H](Cc2c[nH]c3ccccc23)C(N)=O)NC(=O)[C@H](CC(C)C)NC1=O | HIV-1 | – | – | – | EC50 | 5 ± 2 µM
Cc1cc(/C=C/C#N)cc(C)c1Nc1nc(Nc2ccc(C#N)cc2)ncc1N | HIV-1 | viral replication, single-round infection | RT mutant G190A | – | EC50 | 0.0003 µM
Cc1cc(C)cc(S(=O)(=O)c2c(C(=O)NC3CC4(C3)CN(Cc3n[nH]c(=O)[nH]3)C4)[nH]c3ccc(Cl)cc23)c1 | HIV-1 | viral replication | MT-4, K103N/Y181C mutant (RES056) | – | EC50 | 7.45 ± 2.25 µM
O=C(NCc1ccc(F)cc1F)c1cc2cccnc2n(O)c1=O | HIV-1 | viral replication | infected cells, integrase G140S/Q148H mutant | – | EC50 | 0.438 ± 0.121 µM
CC(C)n1ccn2cc(C(=O)NCc3ccc(F)cc3F)c(=O)c(O)c2c1=O | HIV-1 | viral replication, single-round vector infection | IN E138K/G140S/Q148H | – | EC50 | 0.207 ± 0.0055 µM
N#Cc1ccc(Nc2nccc(C(=O)c3c(F)cc(F)cc3F)n2)cc1 | HIV-1 | viral replication | MT4, RT Y181C mutant | – | EC50 | 6.66 µM
CCCCCCCCCCCCCCCC(=O)N[C@@H](CCC(=O)NCCOCCOCCC(=O)NCCOCCOCCC(=O)NCCCC[C@H](NC(=O)[C@H](CC(=O)O)NC(=O)[C@H](CC(C)C)NC(=O)[C@H](Cc1ccc(O)cc1)NC(=O)[C@H](CCCCN)NC(=O)[C@H](CO)NC(=O)[C@H](Cc1ccc(O)cc1)NC(=O)[C@H](CC(=O)O)NC(=O)[C@H](CO)NC(=O)[C@@H](NC(=O)[C@H](Cc1ccccc1)NC(=O)[C@@H](NC(=O)CNC(=O)[C@H](CCC(N)=O)NC(=O)[C@@H](CO)NC(=O)[C@@H](N)Cc1c[nH]cn1)[C@@H](C)O)[C@@H](C)O)C(=O)N[C@@H](CCCNC(=N)N)C(=O)N[C@@H](CCCNC(=N)N)C(=O)N[C@@H](C)C(=O)N[C@@H](CCC(N)=O)C(=O)N[C@@H](CC(=O)O)C(=O)N[C@@H](Cc1ccccc1)C(=O)N[C@H](C(=O)N[C@@H](CCC(N)=O)C(=O)N[C@@H](Cc1c[nH]c2ccccc12)C(=O)N[C@@H](CC(C)C)C(=O)N[C@@H](CC(C)C)C(=O)N[C@@H](CC(N)=O)C(=O)N[C@H](C(=O)NCC(=O)NCC(=O)N1CCC[C@H]1C(=O)N[C@@H](CO)C(=O)N[C@@H](CO)C(=O)NCC(=O)N[C@@H](C)C(=O)N1CCC[C@H]1C(=O)N1CCC[C@H]1C(=O)N1CCC[C@H]1C(=O)N[C@@H](CO)C(N)=O)[C@@H](C)O)C(C)C)C(=O)O | – | – | rhesus monkey | subcutaneous, 60 µg/kg, single dose | Tmax | 2.67 ± 1.03 h
Cc1cc(/C=C/C#N)cc(C)c1-n1cnc2cnc(Nc3ccc(C#N)cc3)nc21 | HIV-1 | viral replication, single-round infection | RT mutant V106A/F227L | – | EC50 | 0.0029 ± 0.0003 µM
Cc1cc(C)cc(S(=O)(=O)c2c(C(N)=O)[nH]c3ccc(Cl)cc23)c1 | HIV-1 | viral replication | MT-4, L100I mutant | – | EC50 | 0.015 ± 0.0086 µM
O=C(NCc1ccc(F)cc1F)c1c(O)c2cccnc2n(O)c1=O | HIV-1 | viral replication | infected cells, integrase Y143R mutant | – | EC50 | 0.011 ± 0.002 µM

For quick reference, copied from above:
SMILES | target or system | test | system | setting | endpoint | result
Cc1cc(C)cc(S(=O)(=O)c2c(C(N)=O)[nH]c3ccc(Cl)cc23)c1 | HIV-1 | viral replication | MT-4, L100I mutant | – | EC50 | 0.015 ± 0.0086 µM
